Results from different studies.
Numbered parts are unrelated; each lists some results of a single study. Positions count from the first letter of the parent shown.

Block 1
Target: CCND2, cyclin fold, Cln2 fusion (human)
Method: yeast growth competition, sequencing
Medium: yeast
Setting: weak parent motif
Relative to: not given
Reading: higher = stronger binding
Starting sequence: SCAPER docking peptide (human); SNARRSLNFGGST
Under “normalised enrichment score”, `SFARRSLNFGGST [N2F]` is recorded as 0.658.
Under “normalised enrichment score”, `SNARRSLNEGGST [F9E]` is recorded as -0.263.
Under “normalised enrichment score”, `SNARRSLNDGGST [F9D]` is recorded as 0.177.
`SNARESLNFGGST [R5E]` — result for “normalised enrichment score”: 0.113.
For `SNLRRSLNFGGST [A3L]`, “normalised enrichment score” read -0.282.
Under “normalised enrichment score”, `SNARRSLNFSGST [G10S]` is recorded as 0.249.
Under “normalised enrichment score”, `SNARRSLNYGGST [F9Y]` is recorded as -0.0133.
Under “normalised enrichment score”, `SNYRRSLNFGGST [A3Y]` is recorded as 0.372.
For `SNARRSLNFGGSE [T13E]`, “normalised enrichment score” read 0.548.
`SNAGRSLNFGGST [R4G]`: “normalised enrichment score” 0.173.
Under “normalised enrichment score”, `SNARRSLNFPGST [G10P]` is recorded as 0.462.
`SNARRSLNFGGHT [S12H]`: “normalised enrichment score” 0.504.
`SNARRSANFGGST [L7A]`: “normalised enrichment score” 0.354.
For `SNARRSLVFGGST [N8V]`, “normalised enrichment score” read 0.418.
`SNARRSLCFGGST [N8C]`: “normalised enrichment score” 0.0534.
`SNARRSLNFNGST [G10N]`: “normalised enrichment score” 0.142.
For `SNARRSLWFGGST [N8W]`, “normalised enrichment score” read 0.134.
`SNARDSLNFGGST [R5D]` — result for “normalised enrichment score”: 0.0946.
Under “normalised enrichment score”, `SNARRSLGFGGST [N8G]` is recorded as 0.132.
Under “normalised enrichment score”, `SNARRSLNWGGST [F9W]` is recorded as 0.84.
Under “normalised enrichment score”, `SNAWRSLNFGGST [R4W]` is recorded as 0.0508.
Under “normalised enrichment score”, `SNARRSLNFVGST [G10V]` is recorded as -0.282.
`SNARRELNFGGST [S6E]`: “normalised enrichment score” 0.18.
`SLARRSLNFGGST [N2L]` — result for “normalised enrichment score”: 0.243.
`SNADRSLNFGGST [R4D]` — result for “normalised enrichment score”: 0.315.

Block 2
Target: PABPC1L2, full length, GST fusion (mouse, UniProt A0ABA7IW68)
Method: RNAcompete
Molecule type: RNA
Medium: in vitro
Concentration: 20 nM
Setting: 7-mer, probes averaged, single round
Relative to: mean of 7-mers
Reading: higher = stronger binding
For `AAGCUUG`, the 7-mer Z-score was 0.227.
The 7-mer Z-score of `UGCGAUG` is reported as -0.228.
`UGCAAGA` has a 7-mer Z-score of 0.017.
The 7-mer Z-score of `UUUGAAG` is reported as -0.28.
`CUGUCUC` has a 7-mer Z-score of -0.32.
With `GUUAACA` the 7-mer Z-score was -0.0881.
`UAGCGCC` gave a 7-mer Z-score of -0.0319.
For `AUGCAUA`, the 7-mer Z-score was -0.0989.
`UAUAGGC` has a 7-mer Z-score of -0.0554.
For `ACUGGUA`, the 7-mer Z-score was -0.0554.
The 7-mer Z-score of `AAUCGGC` is reported as 0.234.
The 7-mer Z-score of `CGUCAUC` is reported as -0.258.
`UUAACUU` has a 7-mer Z-score of -0.226.
`AAAUAAC` gave a 7-mer Z-score of 1.99.
The 7-mer Z-score of `UGGCAGU` is reported as -0.079.
With `UGAUGAC` the 7-mer Z-score was -0.22.
For `CUAGAUC`, the 7-mer Z-score was -0.104.
`AUGUAAA` gave a 7-mer Z-score of 0.948.
With `AAGGUGA` the 7-mer Z-score was 0.372.
`GUCUCGG` has a 7-mer Z-score of -0.135.
With `UGUAGCU` the 7-mer Z-score was -0.184.
`GAUAAUU` has a 7-mer Z-score of -0.0482.
For `AAUCGAC`, the 7-mer Z-score was 0.215.

Block 3
Target: Histone acetyltransferase KAT6A, winged helix 2, GST fusion (KAT6A, Homo sapiens, UniProt Q92794, residues 85-181)
Method: protein binding microarray
Molecule type: double-stranded DNA, one strand shown
Medium: in vitro
Concentration: not given
Setting: 8-mer, flanks averaged, mean of 2 arrays, mostly near background
Relative to: not given
Reading: higher = stronger binding
Target sequence (chain): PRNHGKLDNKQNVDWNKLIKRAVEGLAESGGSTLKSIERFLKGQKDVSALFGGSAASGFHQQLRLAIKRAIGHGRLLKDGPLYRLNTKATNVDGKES
For `AAGTTAAG`, the E-score was -0.278.
For `ACGCAGCA`, the E-score was -0.0265.
The E-score of `GTGCCCAA` is reported as 0.16.
The E-score of `AGATCAGC` is reported as 0.186.
`ATAAGCCC` has an E-score of -0.158.
For `CTTCTCAC`, the E-score was -0.0393.
For `GGGCTCGA`, the E-score was 0.0166.
The E-score of `GGACCGAC` is reported as 0.123.
With `GGATAGAC` the E-score was -0.0713.
`ACAACGAT` has an E-score of 0.0688.
For `GAACTAAA`, the E-score was -0.0141.
The E-score of `CGGCAGCC` is reported as 0.0427.
For `CGCCGCAC`, the E-score was 0.0943.
`TCACGGGA` has an E-score of -0.074.
`ACCCAGCA` has an E-score of 0.0663.
`CACTACTG` gave an E-score of -0.139.
The E-score of `ATCCGCGG` is reported as 0.208.
`CTCCGCAG` has an E-score of 0.0213.
`AGTGTAGC` gave an E-score of -0.0354.
`AAGCGGCT` gave an E-score of 0.0763.
With `ACCATTGC` the E-score was -0.0309.
`CCCAGGCG` gave an E-score of 0.232.
The E-score of `CATATACA` is reported as 0.121.
With `GTATAGTA` the E-score was -0.226.
With `GACCGAAC` the E-score was 0.205.

Block 4
Target: RNA binding protein fox-1 homolog 2, RRM domain, GST-SBP tag (RBFOX2, Homo sapiens, UniProt O43251-10, residues 100-194)
Method: RNA Bind-n-Seq
Molecule type: RNA
Medium: in vitro
Concentration: 365 nM
Setting: natural RNA segment, single round, ends assumed
Relative to: no-protein control
Reading: higher = stronger binding
Residues (chain): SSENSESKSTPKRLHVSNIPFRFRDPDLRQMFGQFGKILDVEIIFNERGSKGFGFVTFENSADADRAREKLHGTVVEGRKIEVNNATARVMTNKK
For `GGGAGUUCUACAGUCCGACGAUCACCCUCAAGGAGGAGGUAACUAAGAGGCUCUUCCAGGGGUAGCUGGUGGGUGUGCUUUUCAUAGGCUUCCCUUUGCCUUAAACCUGAAGAUGUCUCCUCAAGCCUGUGGGUGGAAUUCUCGGGUGCCAA`, “RBNS enrichment (R)” read 0.838.
`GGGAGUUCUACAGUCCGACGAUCCCAGGCCUUAUUGAGACCAGACCCCUAAGCCUCCAACCCCCCAGCAUGUCCCCUAAUGGGGACUGGCUCUCGCUUCACCCCCAUGGGGUUCCUCUAAUAAGGACCAGCCUUGGAAUUCUCGGGUGCCAA` — result for “RBNS enrichment (R)”: 2.56.
Under “RBNS enrichment (R)”, `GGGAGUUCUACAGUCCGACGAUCCCCCCGCUUCCUCCUAGCCCUGUGGGCAGGGGUUGGAAACUUAGCACUUUAUAUUUAUACAGAACAUUCAGGAUAUGUCAAUAAAAUAUUGUUAUAUUUAAAAAACAACAUGGAAUUCUCGGGUGCCAA` is recorded as 0.328.
Under “RBNS enrichment (R)”, `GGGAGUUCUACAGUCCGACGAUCGUUAAGAUGCAGGCUUUGCAUAUCACCAGGUCACUUAGAAUAUUCUAACAGUUACUCUGAAGAUGUGUCAUGAUUUGUGAGCCUUUGGAUCUGGGUAAAUAGAGGACAAAUGGAAUUCUCGGGUGCCAA` is recorded as 0.291.
`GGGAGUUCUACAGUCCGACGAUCGGGCUGGACCAUGUGGCCAAGCCUGCGCCUCCUGUGGCUUACCUGCCUGCCCACCCUUCGCACAUACACCCGUGGCAGGGAGUGUGGAACUGAAGACUGGCUGGAGGCACUGGAAUUCUCGGGUGCCAA` — result for “RBNS enrichment (R)”: 0.185.
Under “RBNS enrichment (R)”, `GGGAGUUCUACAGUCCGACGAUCCAUGGAGGUGGUUUAAGCAUAAUACUUAACCCAAGAAAGAGUGUAAGUGGACACAAGCUGUGCCUGCACAUAGCUGUGCAGGGUAGACUGCCUACAUACACAUGGCCGGGUGGAAUUCUCGGGUGCCAA` is recorded as 0.298.
`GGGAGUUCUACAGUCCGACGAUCAAAUCCCUUGGCCGCACUUUUAAGGUUUUUUUAUAUGUGUAUAGUUACCAACCUAAAAAUAAAAAAUCCGAACAGCAUACUUGAAGAAUGUAAUACUCAAACUCUCAGUGUGGAAUUCUCGGGUGCCAA` — result for “RBNS enrichment (R)”: 2.46.
Under “RBNS enrichment (R)”, `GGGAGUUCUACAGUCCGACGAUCCUCCUGCAGACAGUGCUGCACAUCAUCCAGGUAGUCAUCAGCUACUUCCUCAUGCUCAUCUUCAUGACCUACAAUGGGUACCUAUGCAUUGCAGUAGCAGCAGGGGCUGGUGGAAUUCUCGGGUGCCAA` is recorded as 0.651.
For `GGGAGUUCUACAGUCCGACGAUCAAUAGUUGAACUUGACAGCAUAUAACUUAAAGUGAAAAUGUUUUUGCCAGAACAUGUCUUGGUACCUUGUGAAAGCAGGCUGCCCUUGUUCUUGAGAUAGACUUUAAAAUUGGAAUUCUCGGGUGCCAA`, “RBNS enrichment (R)” read 0.415.
Under “RBNS enrichment (R)”, `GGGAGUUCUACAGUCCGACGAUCUCCAGUCUUCCCUUUAAAAGCCUGUGGCAUUUUUCCUCCUUCUCCCUAACUUUAGAAAUGUUGUACUUGGCUAUUUUGAUUAGGGAAGAGGGAUGUGGUCUCUGAUCUCUUGGAAUUCUCGGGUGCCAA` is recorded as 0.586.
`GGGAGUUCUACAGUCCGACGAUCUGUCAGAUGCACCCAAGUCCUUAGCCCAUCUGUGCCACUGCAAGAGUCUGCUCUUGUAUUUCUUUCCCUCCCCGAGAAGGGAGGGAGCCACUUUCAGGCCCUCCGGUGUGUGGAAUUCUCGGGUGCCAA` — result for “RBNS enrichment (R)”: 0.221.
`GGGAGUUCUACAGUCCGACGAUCUCUUGCAUGAAAUAGAUUUACUCUGCCAAUUUUAUCCAUGUUCUUGCUAAGUCUAUUGAUGAUAUGAAUUGGAAAGGGAGAAUUUUGAAUAUGGUGAGAAAUUGGGAAAAUGGAAUUCUCGGGUGCCAA` — result for “RBNS enrichment (R)”: 2.42.

Repeated from above (block 3):
With `GTATAGTA` the E-score was -0.226.
`AGTGTAGC` gave an E-score of -0.0354.
For `GGGCTCGA`, the E-score was 0.0166.
The E-score of `GTGCCCAA` is reported as 0.16.
With `GGATAGAC` the E-score was -0.0713.
